Experimental data from different studies.
Parts stem from different laboratories: compare values within a part only.
Sequence of UniProt P31645 (whole entry, looked up): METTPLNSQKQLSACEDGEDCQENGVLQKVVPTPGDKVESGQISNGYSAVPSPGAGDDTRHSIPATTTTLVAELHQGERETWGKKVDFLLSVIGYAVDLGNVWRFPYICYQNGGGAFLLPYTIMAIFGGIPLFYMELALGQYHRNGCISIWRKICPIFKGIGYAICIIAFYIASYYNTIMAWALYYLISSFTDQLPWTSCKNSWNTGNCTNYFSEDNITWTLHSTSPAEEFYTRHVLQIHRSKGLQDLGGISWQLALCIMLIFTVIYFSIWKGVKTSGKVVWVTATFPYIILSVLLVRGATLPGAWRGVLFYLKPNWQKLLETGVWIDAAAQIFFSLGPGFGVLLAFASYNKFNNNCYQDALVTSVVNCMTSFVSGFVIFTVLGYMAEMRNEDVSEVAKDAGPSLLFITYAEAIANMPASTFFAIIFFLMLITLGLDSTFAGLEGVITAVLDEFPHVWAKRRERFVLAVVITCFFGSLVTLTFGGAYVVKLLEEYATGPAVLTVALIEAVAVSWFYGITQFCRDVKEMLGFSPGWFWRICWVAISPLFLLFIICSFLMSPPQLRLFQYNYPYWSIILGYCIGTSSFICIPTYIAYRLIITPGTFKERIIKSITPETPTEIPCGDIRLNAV

Series 1
Cell line: HEK-293T/ACE2
Concentration: 10 µM
Time: 16 h
Reference: vehicle
Endpoint: viability
CCCNC(C)C(=O)Nc1ccccc1C (centres unmarked): 99.3%
CCOc1nc2cccc(C(=O)O)c2n1Cc1ccc(-c2ccccc2-c2nnn[nH]2)cc1: 98.3%
CC[C@H]1OC(=O)[C@H](C)[C@@H](O[C@H]2C[C@@](C)(OC)[C@@H](O)[C@H](C)O2)[C@H](C)[C@@H](O[C@@H]2O[C@H](C)C[C@H](N(C)C)[C@H]2O)[C@](C)(OC)C[C@@H](C)C(=O)[C@H](C)[C@@H](O)[C@]1(C)O: 101%

Further values, each from its own experiment
CC(=O)N[C@@H](Cc1c[nH]c2ccccc12)C(=O)N[C@@H](CCC(=O)C=[N+]=[N-])C(=O)OC(C)C  haematocrit (C57BL/6 CES1-/- mouse, blood; intravenous, 1 mg/kg equivalent): 21.9%
C=CCNC1=C2C[C@@H](C)C[C@H](OC)[C@H](O)[C@@H](C)/C=C(\C)[C@H](OC(N)=O)[C@@H](OC)/C=C\C=C(/C)C(=O)NC(=CC1=O)C2=O  viability (HEK293T-ACE2-TMPRSS2; 10 µM): 124%
C[C@H](c1ccnc(Nc2nc3ccc(-c4cc(N(C)C)ncn4)cc3[nH]2)c1)N1CCN(C(=O)CC(F)(F)F)CC1  inhibition (SLC6A4 (Homo sapiens, UniProt P31645); ligand displacement; 10 µM): 21.6%
CC(C)(C)NC(=S)N/N=C/C=N/NC(=S)NC(C)(C)C  viability (HEK293T-ACE2-TMPRSS2; 10 µM): 161%
CNC(=N)NCCC[C@H](NC(=O)[C@H](CC(C)C)NC(=O)NNC(=O)[C@H](Cc1ccccc1)NC(=O)[C@H](CO)NC(=O)[C@H](CC(N)=O)NC(=O)[C@@H](Cc1cccnc1)NC(=O)[C@H](N)Cc1ccc(O)cc1)C(=O)NCC(N)=O  viability (sample I colorectal tumour organoid; 0.1 µM, replicate 2; reference: DMSO): 120%
